Measurements pooled from the literature.
Lines come from different studies, so protocols differ. Numbers after ± are the reported error.
Cell line: HepG2

C/C(=N\N=C1/NC(=O)/C(=C\c2ccc(Cl)cc2)S1)c1ccccn1
inhibition (cell growth or viability, SRB; 100 µg/mL, 48 h): 61%

N/C(CC(O)c1ccnc2ccccc12)=N\c1ccc(F)cc1 (stereo not shown)
CC50 (cell growth or viability): > 200 µM

COc1ccc2c(c1)c1c(n2CO)CN2CCc3cc(OCc4ccccc4F)c(OC)cc3C2C1 (stereo not shown)
protein level (Western blot, measured: PCSK9; 5 µM, 24 h, unit not given; relative to: vehicle): 0.87 ± 0.06

COc1cc2nc(N3CCN(C(=O)OCc4ccccc4)[C@H](C(=O)NC(C)(C)C)C3)nc(N)c2cc1OC
EC50 (phospholipidosis induction, inducer, high-content imaging; 24 h, confirmation screen): 4 ± 1.7 µM

CNC(=O)c1cc(Oc2ccc(NC(=O)Nc3ccc(Cl)c(C(F)(F)F)c3)cc2)ccn1
IC50 (cell proliferation, MTT; 48 h, miR-140-3p): 0.13 ± 0.01 µM

COc1cc2c(cc1OCc1ccccc1)CCN1Cc3c(c4c(Cl)cccc4n3CO)CC21 (stereo not shown)
protein level (Western blot, measured: PCSK9; 5 µM, 24 h, unit not given; relative to: vehicle): 0.86

N#CCNC(=O)c1ccc(-c2ccnc(Nc3ccc(N4CCOCC4)cc3)n2)cc1
EC50 (hepcidin mRNA reduction, measured: HAMP mRNA; 6 h, 50% effect level, with: BMP6 10 ng/mL): 0.65 ± 0.2 µM

COc1ccc(-c2ccc(-c3ccc(C(=N)N)nc3)s2)cc1Cl
mRNA level (real-time PCR, measured: CDK1; 0.1 µM, 8 h, unit not given; relative to: untreated): 0.51 ± 0.15

Cl.N=C1C=CC(=C(c2ccc(N)cc2)c2ccc(N)cc2)C=C1
maximal OCR (MMP IC50, 1 h, with: FCCP 1 µM; relative to: basal OCR): 104 ± 3.14%

CCN1C(=O)C(C)S/C1=N/N=C(\C)c1ccccn1 (stereo not shown)
inhibition (cell growth or viability, SRB; 100 µg/mL, 48 h): 60.2%

CC1=C(C(=O)Nc2ccccn2)C(c2ccc3ccc4cccc5ccc2c3c45)NC(=S)N1 (stereo not shown)
inhibition (cell growth or viability, MTT; 10 µM): 22.3%

OCCN1CCN(CC/C=C2/c3ccccc3Sc3ccc(C(F)(F)F)cc32)CC1
EC50 (phospholipidosis induction, inducer, high-content imaging; 24 h, primary screen): 1.4 µM

COc1ccc2c(c1)c1c(n2CO)CN2CCc3cc(OC)c(OCc4cccc(F)c4)cc3C2C1 (stereo not shown)
protein level (Western blot, measured: PCSK9; 5 µM, 24 h, unit not given; relative to: vehicle): 0.84 ± 0.08

CN1CCN(c2nc3cc(C(F)(F)F)ccc3n3cccc23)CC1
EC50 (phospholipidosis induction, inducer, high-content imaging; 24 h, confirmation screen): 10 ± 4 µM

CN(C)c1ccc(N=NS(=O)(=O)O)cc1
OCR (Seahorse respirometry; concentration not given, 1 h, dosed at MMP IC50, with: 1 µM FCCP; relative to: basal): 137.8 ± 0.96%

CSc1ccc2c(c1)C(N1CCN(C)CC1)Cc1ccccc1S2 (stereo not shown)
EC50 (phospholipidosis induction, inducer, high-content imaging; 24 h, primary screen): 3.5 µM

CC1=C(/C=C/C(C)=C/C=C/C(C)=C/C(=O)Nc2ccc(O)cc2)C(C)(C)CCC1
maximal OCR (MMP IC50, 1 h, with: FCCP 1 µM; relative to: basal OCR): 79 ± 2.11%

CC1=C(C(=O)Nc2ccccc2)C(c2ccc3ccc4cccc5ccc2c3c45)NC(=S)N1 (stereo not shown)
inhibition (cell growth or viability, MTT; 10 µM): 26.5%

COc1ccc2cc3[n+](cc2c1OC)CCc1cc2c(cc1-3)OCO2
protein level (Western blot, measured: PCSK9; 5 µM, 24 h, unit not given; relative to: vehicle): 0.71

CC12NC(=S)NC(c3c(ccc4ccccc34)O1)C2C(=O)Nc1ccccc1 (stereo not shown)
inhibition (cell growth or viability, MTT; 10 µM): 65.4%

COc1cccc(COc2cc3c(cc2OC)CCN2Cc4c(c5cc(OC)ccc5n4CO)CC32)c1 (stereo not shown)
protein level (Western blot, measured: PCSK9; 5 µM, 24 h, unit not given; relative to: vehicle): 1.04 ± 0.16

NC(N)=NC(=O)c1nc(Cl)c(N2CCCCCC2)nc1N
EC50 (phospholipidosis induction, inducer, high-content imaging; 24 h, confirmation screen): 15.2 ± 7.7 µM

O=C(Nc1nc2ccc([N+](=O)[O-])cc2s1)C(c1ccccc1)S(=O)(=O)O (stereo not shown)
insulin-induced AKT phosphorylation (measured: phospho-AKT/AKT; 16 µM, 2 h, with: insulin 50 nM 30 min; relative to: vehicle): 260%

COc1ccc(-c2ccc(-c3ccc(C(=N)N)nc3)s2)cc1
mRNA level (real-time PCR, measured: CDK1; 0.1 µM, 8 h, unit not given; relative to: untreated): 0.37 ± 0.04

CCn1c(-c2ccccc2)cs/c1=N/N=C(\C)c1ccccn1
inhibition (cell growth or viability, SRB; 100 µg/mL, 48 h): 54.2%

Nc1ccc2c(c1)C(=O)c1ccccc1C2=O
OCR (Seahorse respirometry; concentration not given, 1 h, dosed at MMP IC50, with: 1 µM FCCP; relative to: basal): 164 ± 3.4%

CCN1C(=O)CS/C1=N/N=C(\C)c1ccccn1
inhibition (cell growth or viability, SRB; 100 µg/mL, 48 h): 65.2%

COc1cc2c(cc1OCc1ccccc1)CCN1Cc3c(c4c(Br)cccc4n3CO)CC21 (stereo not shown)
protein level (Western blot, measured: PCSK9; 5 µM, 24 h, unit not given; relative to: vehicle): 0.97

CCN1C(=O)/C(=C\c2ccc(OC)cc2)S/C1=N/N=C(\C)c1ccccn1
inhibition (cell growth or viability, SRB; 100 µg/mL, 48 h): 62.7%

COc1cccc2c1C(=O)c1c(O)c3c(c(O)c1C2=O)C[C@@](O)(C(=O)CO)C[C@@H]3O[C@H]1C[C@H](N)[C@H](O)[C@H](C)O1
mRNA level (real-time PCR, measured: TXNRD1; 0.1 µM, 8 h, unit not given; relative to: untreated): 0.47 ± 0.1

CCn1c(C)c(C(C)=O)s/c1=N/N=C(\C)c1ccccn1
inhibition (cell growth or viability, SRB; 100 µg/mL, 48 h): 66.1%

CCc1ccc(CCOc2ccc(CC3SC(=O)NC3=O)cc2)nc1 (stereo not shown)
point of departure (Bayesian modelling, measured: mitochondrial stress biomarkers): 10 to 100 µM

CCn1c(C)c(/N=N/c2ccc(C)cc2)s/c1=N/N=C(\C)c1ccccn1
inhibition (cell growth or viability, SRB; 100 µg/mL, 48 h): 66.1%

COc1cc(-c2ccc(-c3ccc(C(=N)N)nc3)s2)cc(OC)c1OC
mRNA level (real-time PCR, measured: caspase-3; 0.1 µM, 8 h, unit not given; relative to: untreated): 3.37 ± 0.25

CC(C)(C)[C@]1(O)CCN2C[C@H]3c4ccccc4CCc4cccc(c43)[C@@H]2C1
EC50 (phospholipidosis induction, LipidTOX high-content imaging; 24 h, primary qHTS): 6.3 µM

CC12NC(=S)NC(c3c(ccc4ccccc34)O1)C2C(=O)Nc1cccnc1 (stereo not shown)
inhibition (cell growth or viability, MTT; 10 µM): 46.5%

O=C1c2c(O)ccc(O)c2C(=O)c2c(NCCNCCO)ccc(NCCNCCO)c21
EC50 (cell proliferation): 0.12 µM

C/C(=N\N=C1/NC(=O)C(C)S1)c1ccccn1 (stereo not shown)
inhibition (cell growth or viability, SRB; 100 µg/mL, 48 h): 68.6%

N=C(CC(O)c1cc2ccccc2c2ccccc12)NCCc1ccc(F)cc1 (stereo not shown)
CC50 (cell growth or viability): 5 µM

COc1ccc2c(c1)c1c(n2CO)CN2CCc3cc(OC)c(OCc4ccc(C)cc4)cc3C2C1 (stereo not shown)
protein level (Western blot, measured: PCSK9; 5 µM, 24 h, unit not given; relative to: vehicle): 0.92 ± 0.09

For quick reference, copied from above:
CCn1c(-c2ccccc2)cs/c1=N/N=C(\C)c1ccccn1
inhibition (cell growth or viability, SRB; 100 µg/mL, 48 h): 54.2%

Nc1ccc2c(c1)C(=O)c1ccccc1C2=O
OCR (Seahorse respirometry; concentration not given, 1 h, dosed at MMP IC50, with: 1 µM FCCP; relative to: basal): 164 ± 3.4%

CCN1C(=O)CS/C1=N/N=C(\C)c1ccccn1
inhibition (cell growth or viability, SRB; 100 µg/mL, 48 h): 65.2%

COc1cc2c(cc1OCc1ccccc1)CCN1Cc3c(c4c(Br)cccc4n3CO)CC21 (stereo not shown)
protein level (Western blot, measured: PCSK9; 5 µM, 24 h, unit not given; relative to: vehicle): 0.97

CCN1C(=O)/C(=C\c2ccc(OC)cc2)S/C1=N/N=C(\C)c1ccccn1
inhibition (cell growth or viability, SRB; 100 µg/mL, 48 h): 62.7%

COc1cccc2c1C(=O)c1c(O)c3c(c(O)c1C2=O)C[C@@](O)(C(=O)CO)C[C@@H]3O[C@H]1C[C@H](N)[C@H](O)[C@H](C)O1
mRNA level (real-time PCR, measured: TXNRD1; 0.1 µM, 8 h, unit not given; relative to: untreated): 0.47 ± 0.1
